{"data": "Measurements collected from several papers", "organism": "Candida albicans", "note": "Compare with care: the assays were run in different laboratories."}
{"SMILES": "CC[C@H](C)[C@H](NC(=O)[C@H](Cc1c[nH]c2ccccc12)NC(=O)[C@@H](NC(=O)[C@@H](NC(=O)[C@@H](NC(=O)[C@H](CCCNC(=N)N)NC(=O)[C@@H](N)CCCNC(=N)N)[C@@H](C)CC)[C@@H](C)O)[C@@H](C)CC)C(=O)N[C@H](C(=O)N[C@H](C(=O)N[C@@H](CCCNC(=N)N)C(=O)N[C@@H](CCCNC(=N)N)C(N)=O)[C@@H](C)CC)[C@@H](C)O", "test system": "CGMCC 2.209, RPMI 1640 MOPS-buffered", "setting": "48 h, 37 °C, tested up to 128 µM", "MIC": "2 µM"}
{"SMILES": "CC[C@H](C)[C@H](NC(=O)CN)C(=O)N[C@@H](C)C(=O)N[C@@H](CCCCN)C(=O)N[C@@H](Cc1ccccc1)C(=O)N[C@H](C(=O)N[C@@H](CCCCN)C(=O)N[C@@H](CCCCN)C(=O)N[C@H](C(=O)N[C@@H](C)C(=O)N[C@@H](CCCCN)C(=O)N[C@@H](C)C(=O)N[C@@H](CC(C)C)C(=O)N[C@@H](CCCNC(=N)N)C(N)=O)[C@@H](C)CC)[C@@H](C)CC", "test system": "ATCC 90029, RPMI MOPS", "setting": "24 h, pH 7.0, 33 °C", "MIC": "64 µg/mL"}
{"SMILES": "CC[C@H](C)[C@H](NC(=O)CN)C(=O)NCC(=O)N[C@@H](C)C(=O)N[C@H](C(=O)N[C@@H](CC(C)C)C(=O)N[C@@H](CCCCN)C(=O)N[C@H](C(=O)N[C@@H](CC(C)C)C(=O)N[C@H](C(=O)N[C@H](C(=O)NCC(=O)N[C@@H](CC(C)C)C(=O)N1CCC[C@H]1C(=O)N[C@@H](C)C(=O)N[C@@H](CC(C)C)C(=O)N[C@H](C(=O)N[C@@H](CO)C(=O)N[C@@H](Cc1c[nH]c2ccccc12)C(=O)N[C@H](C(=O)N[C@@H](CCCCN)C(=O)N[C@@H](CCCNC(=N)N)C(=O)N[C@@H](CCCCN)C(=O)N[C@@H](CCCNC(=N)N)C(=O)N[C@@H](CCC(N)=O)C(=O)N[C@@H](CCC(N)=O)C(N)=O)[C@@H](C)CC)[C@@H](C)CC)[C@@H](C)O)[C@@H](C)O)C(C)C)C(C)C", "assay": "broth microdilution", "test system": "CGMCC 2.209, RPMI 1640-MOPS", "setting": "48 h, 30 °C", "MIC": "4 µM"}
{"SMILES": "C#Cc1cccc(C=NNC(=O)c2ccc(Br)c(Br)c2)c1O", "test system": "A39", "setting": "48 h", "MIC": "4 µg/mL"}
{"SMILES": "CC(C)[C@H](NC(=O)[C@H](CCCNC(=N)N)NC(=O)[C@H](Cc1c[nH]c2ccccc12)NC(=O)[C@H](CCCNC(=N)N)NC(=O)[C@H](Cc1c[nH]c2ccccc12)NC(=O)[C@H](Cc1c[nH]c2ccccc12)NC(=O)[C@H](Cc1c[nH]c2ccccc12)NC(=O)[C@H](CCCNC(=N)N)NC(=O)[C@H](Cc1c[nH]c2ccccc12)NC(=O)[C@H](CCCNC(=N)N)NC(=O)CN)C(N)=O", "assay": "broth microdilution", "test system": "CGMCC 2.209, RPMI 1640-MOPS", "setting": "48 h, 30 °C, added: MgCl2 1 mM", "MIC": "8 µM"}
{"SMILES": "OC(COc1ccc(-c2nnco2)cc1)CN1CCN(CC(O)COc2ccc(-c3nnco3)cc2)CC1 (stereo not drawn)", "test system": "DSY654 Cdr knockout", "MIC": "> 128 µg/mL"}
{"SMILES": "CC[C@H](C)[C@H](NC(=O)[C@H](Cc1c[nH]c2ccccc12)NC(=O)[C@@H](N)CCCNC(=N)N)C(=O)N[C@@H](CCCNC(=N)N)C(=O)N1CCC[C@H]1C(=O)N[C@@H](CCSC)C(=O)N[C@@H](Cc1c[nH]c2ccccc12)C(N)=O", "MIC": "512 µg/mL"}
{"SMILES": "N=C(N)NCCC[C@H](NC(=O)[C@H](Cc1c[nH]c2ccccc12)NC(=O)[C@H](CCCNC(=N)N)NC(=O)[C@H](Cc1c[nH]c2ccccc12)NC(=O)[C@H](Cc1c[nH]c2ccccc12)NC(=O)[C@H](Cc1c[nH]c2ccccc12)NC(=O)[C@H](CCCNC(=N)N)NC(=O)[C@H](Cc1c[nH]c2ccccc12)NC(=O)[C@@H](N)CCCNC(=N)N)C(N)=O", "assay": "broth microdilution", "test system": "CGMCC 2.209, RPMI 1640-MOPS", "setting": "48 h, 30 °C, added: KCl 4.5 mM", "MIC": "8 µM"}
{"SMILES": "C#Cc1ccc(O)c(C=NNC(=O)c2ccc(Br)cc2)c1", "test system": "A39", "setting": "48 h", "MIC": "0.24 µg/mL"}
{"SMILES": "C[C@H](NC(=O)[C@H](CCCNC(=N)N)NC(=O)[C@H](Cc1c[nH]c2ccccc12)NC(=O)[C@H](CCCNC(=N)N)NC(=O)[C@H](Cc1c[nH]c2ccccc12)NC(=O)[C@H](Cc1c[nH]c2ccccc12)NC(=O)[C@H](Cc1c[nH]c2ccccc12)NC(=O)[C@H](CCCNC(=N)N)NC(=O)[C@H](Cc1c[nH]c2ccccc12)NC(=O)[C@H](CCCNC(=N)N)NC(=O)CN)C(N)=O", "assay": "broth microdilution", "test system": "SP3902, RPMI 1640-MOPS", "setting": "48 h, 30 °C", "MIC": "8 µM"}
{"SMILES": "CC(C)C[C@H](NC(=O)[C@@H](NC(=O)[C@H](Cc1c[nH]c2ccccc12)NC(=O)[C@H](Cc1c[nH]c2ccccc12)NC(=O)[C@H](CCCNC(=N)N)NC(=O)[C@@H](N)CCCNC(=N)N)[C@@H](C)O)C(=O)N[C@H](C(N)=O)C(C)C", "MIC": "32 µg/mL"}
{"SMILES": "CC[C@H](C)[C@H](NC(=O)CN)C(=O)NCC(=O)N[C@@H](C)C(=O)N[C@H](C(=O)N[C@@H](CC(C)C)C(=O)N[C@@H](CCCCN)C(=O)N[C@H](C(=O)N[C@@H](CC(C)C)C(=O)N[C@H](C(=O)N[C@H](C(=O)NCC(=O)N[C@@H](CC(C)C)C(=O)N1CCC[C@H]1C(=O)N[C@@H](C)C(=O)N[C@@H](CC(C)C)C(=O)N[C@H](C(=O)N[C@@H](CO)C(=O)N[C@@H](Cc1c[nH]c2ccccc12)C(=O)N[C@H](C(=O)N[C@@H](CCCCN)C(=O)N[C@@H](CCCNC(=N)N)C(=O)N[C@@H](CCCCN)C(=O)N[C@@H](CCCNC(=N)N)C(=O)N[C@@H](CCC(N)=O)C(=O)N[C@@H](CCC(N)=O)C(N)=O)[C@@H](C)CC)[C@@H](C)CC)[C@@H](C)O)[C@@H](C)O)C(C)C)C(C)C", "assay": "broth microdilution", "test system": "17546, RPMI-1640", "setting": "48 h, 30 °C", "MIC": "4 µM"}
{"note": "Excerpt of the above:"}
{"SMILES": "CC(C)C[C@H](NC(=O)[C@@H](NC(=O)[C@H](Cc1c[nH]c2ccccc12)NC(=O)[C@H](Cc1c[nH]c2ccccc12)NC(=O)[C@H](CCCNC(=N)N)NC(=O)[C@@H](N)CCCNC(=N)N)[C@@H](C)O)C(=O)N[C@H](C(N)=O)C(C)C", "MIC": "32 µg/mL"}
{"SMILES": "CC[C@H](C)[C@H](NC(=O)CN)C(=O)NCC(=O)N[C@@H](C)C(=O)N[C@H](C(=O)N[C@@H](CC(C)C)C(=O)N[C@@H](CCCCN)C(=O)N[C@H](C(=O)N[C@@H](CC(C)C)C(=O)N[C@H](C(=O)N[C@H](C(=O)NCC(=O)N[C@@H](CC(C)C)C(=O)N1CCC[C@H]1C(=O)N[C@@H](C)C(=O)N[C@@H](CC(C)C)C(=O)N[C@H](C(=O)N[C@@H](CO)C(=O)N[C@@H](Cc1c[nH]c2ccccc12)C(=O)N[C@H](C(=O)N[C@@H](CCCCN)C(=O)N[C@@H](CCCNC(=N)N)C(=O)N[C@@H](CCCCN)C(=O)N[C@@H](CCCNC(=N)N)C(=O)N[C@@H](CCC(N)=O)C(=O)N[C@@H](CCC(N)=O)C(N)=O)[C@@H](C)CC)[C@@H](C)CC)[C@@H](C)O)[C@@H](C)O)C(C)C)C(C)C", "assay": "broth microdilution", "test system": "17546, RPMI-1640", "setting": "48 h, 30 °C", "MIC": "4 µM"}
